Results pooled from the literature.
Parts stem from different laboratories: compare values within a part only. “And” joins repeats or separate records; there may be more than shown.
Sequence of UniProt P42336 (whole entry, unmodified, looked up): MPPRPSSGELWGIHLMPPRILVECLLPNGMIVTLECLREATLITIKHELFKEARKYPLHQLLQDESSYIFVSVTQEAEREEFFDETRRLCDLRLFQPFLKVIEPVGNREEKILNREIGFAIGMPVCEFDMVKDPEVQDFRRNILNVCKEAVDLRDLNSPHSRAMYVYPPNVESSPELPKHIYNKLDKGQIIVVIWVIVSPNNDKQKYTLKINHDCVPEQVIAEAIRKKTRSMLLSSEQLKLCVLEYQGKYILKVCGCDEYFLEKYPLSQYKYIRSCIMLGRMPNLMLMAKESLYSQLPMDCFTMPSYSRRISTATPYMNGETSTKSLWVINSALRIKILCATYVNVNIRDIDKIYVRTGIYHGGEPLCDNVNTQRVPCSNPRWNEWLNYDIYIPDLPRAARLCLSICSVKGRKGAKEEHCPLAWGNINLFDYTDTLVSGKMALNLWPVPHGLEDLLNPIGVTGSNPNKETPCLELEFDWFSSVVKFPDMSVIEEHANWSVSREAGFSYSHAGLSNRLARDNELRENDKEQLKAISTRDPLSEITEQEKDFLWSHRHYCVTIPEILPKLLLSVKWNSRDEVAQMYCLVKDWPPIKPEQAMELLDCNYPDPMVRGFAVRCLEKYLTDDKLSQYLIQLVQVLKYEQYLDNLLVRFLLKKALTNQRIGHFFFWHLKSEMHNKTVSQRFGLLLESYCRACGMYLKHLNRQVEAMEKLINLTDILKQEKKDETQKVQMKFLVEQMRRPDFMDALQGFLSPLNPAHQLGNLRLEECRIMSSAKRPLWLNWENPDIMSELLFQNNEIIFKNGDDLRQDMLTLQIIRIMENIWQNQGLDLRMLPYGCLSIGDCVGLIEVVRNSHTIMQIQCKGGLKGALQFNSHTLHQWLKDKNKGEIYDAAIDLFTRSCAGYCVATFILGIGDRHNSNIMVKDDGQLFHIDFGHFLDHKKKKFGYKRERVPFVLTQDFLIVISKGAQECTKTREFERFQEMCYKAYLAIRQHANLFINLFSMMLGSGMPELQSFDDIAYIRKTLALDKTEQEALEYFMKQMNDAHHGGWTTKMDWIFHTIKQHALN
Sequence of UniProt Q8NG66 (whole entry, looked up): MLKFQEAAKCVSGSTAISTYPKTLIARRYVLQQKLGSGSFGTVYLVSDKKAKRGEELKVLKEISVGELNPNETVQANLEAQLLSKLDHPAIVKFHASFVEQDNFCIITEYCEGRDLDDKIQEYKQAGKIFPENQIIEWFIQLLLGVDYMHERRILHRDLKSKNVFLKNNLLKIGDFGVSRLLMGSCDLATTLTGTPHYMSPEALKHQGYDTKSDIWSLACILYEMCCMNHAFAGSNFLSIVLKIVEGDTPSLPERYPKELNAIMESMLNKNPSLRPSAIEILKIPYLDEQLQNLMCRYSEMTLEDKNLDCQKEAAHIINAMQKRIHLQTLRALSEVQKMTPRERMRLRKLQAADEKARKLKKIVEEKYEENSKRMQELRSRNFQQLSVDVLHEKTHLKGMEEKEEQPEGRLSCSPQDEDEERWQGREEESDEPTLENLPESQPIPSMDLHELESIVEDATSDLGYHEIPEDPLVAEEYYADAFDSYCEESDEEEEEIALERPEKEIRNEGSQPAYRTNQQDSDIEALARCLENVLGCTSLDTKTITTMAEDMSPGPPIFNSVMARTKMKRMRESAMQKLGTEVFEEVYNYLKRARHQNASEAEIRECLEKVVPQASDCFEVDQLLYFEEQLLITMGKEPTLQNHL
Sequence of UniProt P51812 (whole entry, looked up): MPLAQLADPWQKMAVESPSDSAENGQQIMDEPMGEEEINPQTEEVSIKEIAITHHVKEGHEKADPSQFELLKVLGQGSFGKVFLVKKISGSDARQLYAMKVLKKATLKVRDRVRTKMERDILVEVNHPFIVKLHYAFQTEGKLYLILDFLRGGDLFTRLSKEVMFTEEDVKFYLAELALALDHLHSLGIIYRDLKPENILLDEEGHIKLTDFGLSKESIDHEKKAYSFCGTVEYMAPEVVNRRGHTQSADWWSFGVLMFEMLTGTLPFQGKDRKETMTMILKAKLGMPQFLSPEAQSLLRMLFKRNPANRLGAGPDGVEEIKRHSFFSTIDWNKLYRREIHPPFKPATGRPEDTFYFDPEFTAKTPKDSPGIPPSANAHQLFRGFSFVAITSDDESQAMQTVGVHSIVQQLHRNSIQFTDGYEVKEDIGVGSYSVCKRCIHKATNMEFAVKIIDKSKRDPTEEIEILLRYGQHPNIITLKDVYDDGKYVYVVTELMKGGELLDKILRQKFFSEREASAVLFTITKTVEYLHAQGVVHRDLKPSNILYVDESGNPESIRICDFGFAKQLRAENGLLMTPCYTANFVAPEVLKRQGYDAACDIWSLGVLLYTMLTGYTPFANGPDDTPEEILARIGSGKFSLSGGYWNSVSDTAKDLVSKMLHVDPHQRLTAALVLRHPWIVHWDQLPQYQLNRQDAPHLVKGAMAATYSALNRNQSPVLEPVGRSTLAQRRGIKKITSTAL
Sequence of UniProt Q9C098 (whole entry, looked up): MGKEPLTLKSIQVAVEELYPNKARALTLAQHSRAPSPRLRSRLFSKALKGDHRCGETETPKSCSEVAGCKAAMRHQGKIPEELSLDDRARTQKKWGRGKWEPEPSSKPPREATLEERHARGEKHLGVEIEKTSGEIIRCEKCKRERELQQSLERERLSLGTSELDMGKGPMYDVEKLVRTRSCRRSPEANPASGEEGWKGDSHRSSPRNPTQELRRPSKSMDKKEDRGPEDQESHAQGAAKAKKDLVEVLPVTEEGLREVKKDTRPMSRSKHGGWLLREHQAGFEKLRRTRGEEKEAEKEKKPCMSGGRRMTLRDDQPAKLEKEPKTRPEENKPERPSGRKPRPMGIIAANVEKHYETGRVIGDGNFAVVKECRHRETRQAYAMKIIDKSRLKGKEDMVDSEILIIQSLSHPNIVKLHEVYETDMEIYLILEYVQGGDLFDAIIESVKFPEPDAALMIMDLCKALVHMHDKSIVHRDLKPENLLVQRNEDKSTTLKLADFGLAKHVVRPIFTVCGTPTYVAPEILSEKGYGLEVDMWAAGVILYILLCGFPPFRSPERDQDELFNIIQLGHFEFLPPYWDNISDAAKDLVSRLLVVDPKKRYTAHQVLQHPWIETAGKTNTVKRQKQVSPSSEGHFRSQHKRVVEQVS
Sequence of UniProt Q6ZWH5 (whole entry, looked up): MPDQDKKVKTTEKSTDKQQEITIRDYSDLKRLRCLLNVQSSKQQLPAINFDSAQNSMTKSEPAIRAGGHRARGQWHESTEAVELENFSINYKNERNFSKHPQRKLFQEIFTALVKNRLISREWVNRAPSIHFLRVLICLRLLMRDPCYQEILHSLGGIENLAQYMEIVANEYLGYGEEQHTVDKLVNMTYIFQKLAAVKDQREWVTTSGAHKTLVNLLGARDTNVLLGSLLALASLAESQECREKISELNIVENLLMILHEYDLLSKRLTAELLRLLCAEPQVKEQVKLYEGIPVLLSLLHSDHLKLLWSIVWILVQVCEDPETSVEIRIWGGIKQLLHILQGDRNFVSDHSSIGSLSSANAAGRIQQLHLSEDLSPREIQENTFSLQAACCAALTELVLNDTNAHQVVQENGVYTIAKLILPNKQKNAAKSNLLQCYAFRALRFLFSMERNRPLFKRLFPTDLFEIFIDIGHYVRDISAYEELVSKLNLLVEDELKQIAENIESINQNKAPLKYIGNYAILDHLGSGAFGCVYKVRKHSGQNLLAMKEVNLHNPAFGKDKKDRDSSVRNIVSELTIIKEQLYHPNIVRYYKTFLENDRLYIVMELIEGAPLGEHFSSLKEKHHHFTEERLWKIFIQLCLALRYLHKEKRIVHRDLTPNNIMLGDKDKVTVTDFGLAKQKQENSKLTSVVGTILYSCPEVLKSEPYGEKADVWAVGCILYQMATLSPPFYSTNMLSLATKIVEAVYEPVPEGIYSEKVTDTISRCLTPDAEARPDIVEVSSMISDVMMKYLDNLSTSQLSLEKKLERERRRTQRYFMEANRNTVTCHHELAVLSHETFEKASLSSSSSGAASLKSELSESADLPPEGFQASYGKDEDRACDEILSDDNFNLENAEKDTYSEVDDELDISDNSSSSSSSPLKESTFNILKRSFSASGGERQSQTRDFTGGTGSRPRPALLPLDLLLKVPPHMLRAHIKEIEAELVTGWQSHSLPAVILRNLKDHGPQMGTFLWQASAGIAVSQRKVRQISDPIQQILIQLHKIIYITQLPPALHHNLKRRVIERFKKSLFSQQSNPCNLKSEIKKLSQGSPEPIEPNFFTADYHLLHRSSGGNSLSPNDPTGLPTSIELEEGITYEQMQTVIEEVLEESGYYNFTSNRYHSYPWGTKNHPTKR
Sequence of UniProt Q15349 (whole entry, looked up): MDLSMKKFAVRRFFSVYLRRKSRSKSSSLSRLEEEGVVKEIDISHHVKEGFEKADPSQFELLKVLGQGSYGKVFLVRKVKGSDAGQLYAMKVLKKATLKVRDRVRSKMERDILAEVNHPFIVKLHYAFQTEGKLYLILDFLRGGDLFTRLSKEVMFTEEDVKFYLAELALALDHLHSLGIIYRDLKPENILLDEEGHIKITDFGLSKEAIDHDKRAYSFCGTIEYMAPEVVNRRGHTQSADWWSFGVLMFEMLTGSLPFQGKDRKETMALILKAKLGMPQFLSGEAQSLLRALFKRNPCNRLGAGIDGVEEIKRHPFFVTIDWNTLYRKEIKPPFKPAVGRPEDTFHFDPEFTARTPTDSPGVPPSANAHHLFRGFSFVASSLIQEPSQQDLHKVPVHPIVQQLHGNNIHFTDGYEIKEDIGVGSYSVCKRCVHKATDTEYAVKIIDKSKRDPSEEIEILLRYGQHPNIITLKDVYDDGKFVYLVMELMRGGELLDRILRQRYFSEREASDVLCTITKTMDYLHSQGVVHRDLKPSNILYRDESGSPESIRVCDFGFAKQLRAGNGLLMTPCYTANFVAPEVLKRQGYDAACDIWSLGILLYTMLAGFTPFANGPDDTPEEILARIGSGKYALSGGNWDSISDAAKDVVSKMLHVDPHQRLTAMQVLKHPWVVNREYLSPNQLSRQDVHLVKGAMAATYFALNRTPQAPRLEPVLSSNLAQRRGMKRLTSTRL

Block 1
SMILES: CC(=O)N1CCN(c2nc(OC[C@@H]3CCCN3C)nc3c2CCN(c2cccc4cccc(Cl)c24)C3)C[C@@H]1CC#N
Observed: binding
Mode: competitor
Method: NanoBRET
Cells: HEK293
Measurement: normalized BRET
KRAS Q61R: GTPase KRas (KRAS, Homo sapiens, UniProt P01116, Q61R)
KRAS Q61L: GTPase KRas (KRAS, Homo sapiens, UniProt P01116, Q61L)
target = KRAS Q61R; concentration = 11.1 µM; value = 109% and 84.2% and 97.8%
target = KRAS Q61L; concentration = 3.7 µM; value = 33.5% and 37.7% and 32.7%
target = KRAS Q61L; concentration = 1.69 nM; value = 95.3% and 97.6% and 104%
target = KRAS Q61L; concentration = 137 nM; value = 88.7% and 83.3% and 80.1%
target = KRAS Q61R; concentration = 1.69 nM; value = 107% and 114% and 99.7%

Block 2
SMILES: COc1ccc(-c2c(Nc3ccccn3)[nH]c3c(C4=CCCCC4)c(-c4ccccc4)nn3c2=O)cc1
Matrix: plasma
Route: oral
Measurement: mean plasma concentration
measured = S-adenosylmethionine; host = human patients; dose = 400 mg once daily; time = 6 h, cycle 1; value = 20.7 ng/mL
host = human; dose = 100 mg once daily; time = 2 h; notes = cycle 1; value = 4170 ng/mL
measured = S-adenosylmethionine; host = human patients; dose = 400 mg once daily; time = 8 h, cycle 1; value = 20 ng/mL
host = human; dose = 200 mg once daily; time = 3 h; notes = cycle 1; value = 6960 ng/mL
measured = S-adenosylmethionine; host = human patients; dose = 400 mg once daily; time = 2 h, cycle 1; value = 20.1 ng/mL
host = human; dose = 400 mg once daily; time = 4 h; notes = cycle 1; value = 3750 ng/mL

Block 3
SMILES: CN([C@@H]1CCc2c(CC(=O)O)c3cc(S(C)(=O)=O)ccc3n2C1)S(=O)(=O)c1ccc(F)cc1
Observed: cell-free assay
Method: competition with immobilised ligand
Concentration: 1 µM
Measurement: remaining binding
target = Mitogen-activated protein kinase kinase kinase 14 (MAP3K14, Homo sapiens, UniProt Q99558); value = 76%
target = Non-receptor tyrosine-protein kinase TNK1 (TNK1, Homo sapiens, UniProt Q13470); value = 91%
target = SNF-related serine/threonine-protein kinase (SNRK, Homo sapiens, UniProt Q9NRH2); value = 100%
target = Ribosomal protein S6 kinase alpha-3, N-terminal kinase domain (RPS6KA3, Homo sapiens, UniProt P51812); value = 80%
target = Rho-associated protein kinase 1 (ROCK1, Homo sapiens, UniProt Q13464); value = 6%
target = RAF proto-oncogene serine/threonine-protein kinase (RAF1, Homo sapiens, UniProt P04049); value = 100%
target = Tyrosine-protein kinase Srms (SRMS, Homo sapiens, UniProt Q9H3Y6); value = 88%
target = Homeodomain-interacting protein kinase 2 (HIPK2, Homo sapiens, UniProt Q9H2X6); value = 100%
target = Epidermal growth factor receptor (EGFR, Homo sapiens, UniProt P00533, G719S); value = 100%
target = Serine/threonine-protein kinase Nek11 (NEK11, Homo sapiens, UniProt Q8NG66); value = 100%
target = Myosin light chain kinase, smooth muscle (MYLK, Homo sapiens, UniProt Q15746); value = 94%
target = Serine/threonine-protein kinase LATS2 (LATS2, Homo sapiens, UniProt Q9NRM7); value = 88%
target = Ephrin type-B receptor 1 (EPHB1, Homo sapiens, UniProt P54762); value = 100%
target = Receptor tyrosine-protein kinase erbB-3 (ERBB3, Homo sapiens, UniProt P21860); value = 100%
target = Serine/threonine-protein kinase Sgk3 (SGK3, Homo sapiens, UniProt Q96BR1); value = 85%
target = Phosphatidylinositol 4,5-bisphosphate 3-kinase catalytic subunit delta isoform (PIK3CD, Homo sapiens, UniProt O00329); value = 100%
target = Serine/threonine-protein kinase DCLK3 (DCLK3, Homo sapiens, UniProt Q9C098); value = 71%
target = Dual specificity protein kinase CLK4 (CLK4, Homo sapiens, UniProt Q9HAZ1); value = 100%
target = Serine/threonine-protein kinase TAO1 (TAOK1, Homo sapiens, UniProt Q7L7X3); value = 95%
target = Phosphatidylinositol 4,5-bisphosphate 3-kinase catalytic subunit alpha isoform (PIK3CA, Homo sapiens, UniProt P42336, H1047Y); value = 90%
target = Serine/threonine-protein kinase 4 (STK4, Homo sapiens, UniProt Q13043); value = 97%
target = Ribosomal protein S6 kinase alpha-2, C-terminal kinase domain (RPS6KA2, Homo sapiens, UniProt Q15349); value = 100%
target = Serine/threonine-protein kinase Nek10 (NEK10, Homo sapiens, UniProt Q6ZWH5); value = 91%
target = Mast/stem cell growth factor receptor Kit (KIT, Homo sapiens, UniProt P10721, L576P); value = 89%
target = Calcium/calmodulin-dependent protein kinase type II subunit alpha (CAMK2A, Homo sapiens, UniProt Q9UQM7); value = 100%

Block 4
Organism: Sarcocystis neurona
Observed: parasite growth
Concentration: 10 µM
Notes: secondary screen
Measurement: inhibition
SMILES = CC(C)(C)NCC(O)COc1cccc2c1CC(O)C(O)C2 (stereo not shown); value = -24.3%
SMILES = COc1ccc2[n-]c([S+]([O-])Cc3ncc(C)c(OC)c3C)nc2c1.COc1ccc2[n-]c([S+]([O-])Cc3ncc(C)c(OC)c3C)nc2c1.[Mg+2] (stereo not shown); value = 40.9%
SMILES = O=C1CC2(CCCC2)CC(=O)N1CCCCN1CCN(c2ncccn2)CC1; value = -28.5%
SMILES = CC(C)C(=O)Nc1ccc([N+](=O)[O-])c(C(F)(F)F)c1; value = -38.6%
SMILES = CCN1CC(CCN2CCOCC2)C(c2ccccc2)(c2ccccc2)C1=O.Cl (stereo not shown); value = -14.4%
SMILES = CSc1ccc2c(c1)N(CCC1CCCCN1C)c1ccccc1S2 (stereo not shown); value = 42.6%
SMILES = CC1=C(/C=C/C(C)=C/C=C/C(C)=C\C(=O)O)C(C)(C)CCC1; value = -52.7%

Block 5
Structure (SMILES): Cc1ccc(NC(=O)c2ccnc(C(F)(F)F)c2)cc1-c1cc(OCCO)nc(N2CCOCC2)c1
Observed: binding
Concentration: 1 µM
Measurement: remaining binding
target = Mitogen-activated protein kinase 6 (MAPK6, Homo sapiens, UniProt Q16659); value = 78%
target = Serine/threonine-protein kinase Nek11 (NEK11, Homo sapiens, UniProt Q8NG66); method = competition with immobilised ligand; value = 88%
target = Ankyrin repeat and protein kinase domain-containing protein 1 (ANKK1, Homo sapiens, UniProt Q8NFD2); value = 81%
target = Phosphatidylinositol 4,5-bisphosphate 3-kinase catalytic subunit alpha isoform (PIK3CA, Homo sapiens, UniProt P42336, C420R); value = 94%
target = Serine/threonine-protein kinase VRK2 (VRK2, Homo sapiens, UniProt Q86Y07); method = competition with immobilised ligand; value = 100%
target = Mitogen-activated protein kinase kinase kinase 1 (MAP3K1, Homo sapiens, UniProt Q13233); value = 100%
target = Serine/threonine-protein kinase PLK2 (PLK2, Homo sapiens, UniProt Q9NYY3); value = 78%
target = Casein kinase I isoform alpha-like (CSNK1A1L, Homo sapiens, UniProt Q8N752); value = 100%
target = Tyrosine-protein kinase ABL1, phosphorylated (ABL1, Homo sapiens, UniProt P00519, E255K); method = competition with immobilised ligand; value = 93%

For quick reference, copied from above (block 3):
target = Rho-associated protein kinase 1 (ROCK1, Homo sapiens, UniProt Q13464); value = 6%
target = Serine/threonine-protein kinase TAO1 (TAOK1, Homo sapiens, UniProt Q7L7X3); value = 95%
target = Mast/stem cell growth factor receptor Kit (KIT, Homo sapiens, UniProt P10721, L576P); value = 89%
target = Phosphatidylinositol 4,5-bisphosphate 3-kinase catalytic subunit delta isoform (PIK3CD, Homo sapiens, UniProt O00329); value = 100%
